Measurements from different studies.
Each numbered part is a random draw from the data of one study; scales do not carry over between parts.
Sequence of UniProt P50406 (whole entry, looked up): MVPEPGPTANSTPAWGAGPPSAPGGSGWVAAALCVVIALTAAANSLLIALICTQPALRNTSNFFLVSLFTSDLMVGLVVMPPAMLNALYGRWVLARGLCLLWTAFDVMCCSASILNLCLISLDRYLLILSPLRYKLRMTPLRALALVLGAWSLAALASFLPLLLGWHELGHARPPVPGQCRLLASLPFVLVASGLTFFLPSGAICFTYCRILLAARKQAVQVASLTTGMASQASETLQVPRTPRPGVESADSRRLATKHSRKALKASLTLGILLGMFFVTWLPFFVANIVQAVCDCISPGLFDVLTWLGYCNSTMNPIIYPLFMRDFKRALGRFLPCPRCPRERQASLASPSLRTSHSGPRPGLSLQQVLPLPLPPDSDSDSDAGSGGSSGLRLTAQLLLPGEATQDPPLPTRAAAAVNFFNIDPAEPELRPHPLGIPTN

Study 1
Target: Sal-like protein 4, full length isoform B (SALL4, Homo sapiens, UniProt Q9UJQ4-2, residues 1-616)
Method: universal PBM
Molecule type: double-stranded DNA, one strand shown
Medium: in vitro
Concentration: not given
Notes: 8-mer, flanks averaged, mean of replicates
Direction: higher = stronger binding
Quantity: E-score
Construct (chain): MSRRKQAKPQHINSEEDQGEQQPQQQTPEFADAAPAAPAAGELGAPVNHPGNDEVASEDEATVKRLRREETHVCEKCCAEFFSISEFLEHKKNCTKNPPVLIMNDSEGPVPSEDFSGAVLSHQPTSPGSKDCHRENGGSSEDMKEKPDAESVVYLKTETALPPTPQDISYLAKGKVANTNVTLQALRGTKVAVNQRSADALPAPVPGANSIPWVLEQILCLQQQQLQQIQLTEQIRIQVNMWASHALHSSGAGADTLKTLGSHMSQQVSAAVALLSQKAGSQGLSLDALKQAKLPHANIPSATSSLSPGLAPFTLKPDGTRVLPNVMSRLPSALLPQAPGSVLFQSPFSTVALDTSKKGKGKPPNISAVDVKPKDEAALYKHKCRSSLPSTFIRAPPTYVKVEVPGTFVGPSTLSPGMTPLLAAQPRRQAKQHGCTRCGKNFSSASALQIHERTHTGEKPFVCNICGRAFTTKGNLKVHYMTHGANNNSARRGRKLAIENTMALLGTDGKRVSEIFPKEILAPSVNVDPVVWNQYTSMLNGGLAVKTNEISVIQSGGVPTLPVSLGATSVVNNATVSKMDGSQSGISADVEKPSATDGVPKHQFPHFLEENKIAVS
ACCCGTCC: -0.188
ACCGAGGA: -0.0874
ACTCAATG: 0.0542
ACGTTATG: 0.352
CGAATCTA: 0.049
AGATTTCC: -0.0514
GAAGAGGC: -0.0575
ATCAAGAT: 0.121

Study 2
Target: Phosphate system positive regulatory protein PHO4, full length, GST-tagged (PHO4, Saccharomyces cerevisiae, UniProt P07270, residues 1-312)
Method: competition protein-binding microarray
Molecule type: double-stranded DNA, one strand shown
Medium: in vitro
Concentration: 2 µM
Notes: whole 60-bp probe, lowest competitor level
With: Cbf1 competitor, 0.05 µM
Direction: higher = stronger binding
Quantity: fluorescence intensity
All sequences stand within: … GTCTTGATTCGCTTGACGCTGCTG
Construct (chain): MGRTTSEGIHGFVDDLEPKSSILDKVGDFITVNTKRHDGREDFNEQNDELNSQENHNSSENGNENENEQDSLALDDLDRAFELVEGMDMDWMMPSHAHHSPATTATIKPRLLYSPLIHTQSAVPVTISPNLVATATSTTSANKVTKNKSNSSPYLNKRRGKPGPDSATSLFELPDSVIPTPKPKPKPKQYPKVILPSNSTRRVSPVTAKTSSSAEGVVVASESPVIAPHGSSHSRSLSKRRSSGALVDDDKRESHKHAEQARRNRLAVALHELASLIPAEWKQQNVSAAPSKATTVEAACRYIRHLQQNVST
CCACTGCCACTATTGCACGTAACGCCATTTTTCCAA: 6200 a.u.
TTGTTCGAAAAAAATAGCGTGCTTTTTGGCCAGAAA: 5350 a.u.
TGTCTGGAAGGGCCACACCCGGAATTGCAGGTCTAC: 3750 a.u.
CGTCGGCCCAACTTGATCATGCAATTAGCAAGCAAC: 4250 a.u.
AATTATCAGGGACCGGTCGTGCCGATAATGTCCTGC: 6760 a.u.
AGAGGTTCCTCTCGCCATGAGGTGAGTCAGCCACTG: 5540 a.u.
GTACCAAGACATCCGCACGTGGAAGATGACGCCTGC: 15300 a.u.
TGCTTACTTGATTGTCATGTGCCTTCGTAGGCAAAG: 8630 a.u.

Study 3
Target: PABPC1L2, full length, GST fusion (mouse, UniProt A0ABA7IW68)
Method: RNAcompete
Molecule type: RNA
Medium: in vitro
Concentration: 20 nM
Notes: 7-mer, probes averaged, single round
Relative to: mean of 7-mers
Direction: higher = stronger binding
Quantity: 7-mer Z-score
Target sequence (chain): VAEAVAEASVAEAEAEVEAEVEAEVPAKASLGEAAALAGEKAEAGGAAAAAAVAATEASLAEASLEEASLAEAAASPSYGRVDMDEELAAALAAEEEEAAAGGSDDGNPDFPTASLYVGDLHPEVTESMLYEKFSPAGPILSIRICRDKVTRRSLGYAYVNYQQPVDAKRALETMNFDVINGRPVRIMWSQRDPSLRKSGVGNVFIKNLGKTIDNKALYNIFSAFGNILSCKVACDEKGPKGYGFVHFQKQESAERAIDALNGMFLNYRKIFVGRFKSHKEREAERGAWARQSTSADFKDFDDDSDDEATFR
CUUACCC: -0.481
UCCCCAG: -0.316
GAAAUCC: 0.066
GUGCAUU: -0.0428
UUAGGCA: 0.184
CUGGAUA: 0.00436
CCUGAUA: -0.0899
UACAGUC: -0.22

Single results of other studies
CO[C@H]1CC[C@H](CNc2ccc(S(=O)(=O)NC(=O)c3ccc(N4CCN(CC5=C(c6ccc(Cl)cc6)CC(C)(C)CC5)CC4)cc3Oc3cnc4[nH]ccc4c3)cc2[N+](=O)[O-])CC1
inhibition (5-hydroxytryptamine receptor 6 (HTR6, Homo sapiens, UniProt P50406); ligand displacement; 10 µM): -8.56%

Repeated from above (study 2):
AATTATCAGGGACCGGTCGTGCCGATAATGTCCTGC: 6760 a.u.
